# Experimental data gathered from unrelated publications.
# A part holds a random share of what one study measured. Substitutions count along the parent as printed.

# Block 1 — target: CCNB2, cyclin fold, Cln2 fusion (human); method: yeast growth competition, sequencing; matrix: yeast; notes: weak parent motif; relative to: not given; direction: higher = stronger binding
# Starting sequence: SAMHD1 docking peptide (human); ASKSRVQLFKDDP; partner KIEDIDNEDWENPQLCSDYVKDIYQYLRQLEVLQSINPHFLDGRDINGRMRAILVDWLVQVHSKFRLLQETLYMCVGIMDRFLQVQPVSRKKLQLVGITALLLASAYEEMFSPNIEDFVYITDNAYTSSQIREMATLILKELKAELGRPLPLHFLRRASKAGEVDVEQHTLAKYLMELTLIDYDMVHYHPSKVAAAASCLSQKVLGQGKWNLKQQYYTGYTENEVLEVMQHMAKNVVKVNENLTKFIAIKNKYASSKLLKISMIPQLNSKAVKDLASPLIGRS
Substitution,normalised enrichment score
R5V,0.223
L8R,0.314
V6A,0.515
S4Q,0.468
D11G,0.401
L8T,0.363
S2Y,0.46
K3S,0.0394
K3L,-0.0219
D11M,0.368
K10W,-0.294
R5I,0.0956
D12P,-0.111
S4N,0.211
K3V,0.205
Q7H,0.548
K10M,0.181
K10H,0.00655
D11T,0.438

# Block 2 — method: RNA Bind-n-Seq; molecule type: RNA; matrix: in vitro; concentration: 365 nM; relative to: no-protein control; direction: higher = stronger binding
# Target: RNA binding protein fox-1 homolog 2, RRM domain, GST-SBP tag (RBFOX2, Homo sapiens, UniProt O43251-10, residues 100-194)
# Notes: natural RNA segment, single round, ends assumed
# All sequences stand within: GGGAGUUCUACAGUCCGACGAUC … UGGAAUUCUCGGGUGCCAA
# Construct (chain): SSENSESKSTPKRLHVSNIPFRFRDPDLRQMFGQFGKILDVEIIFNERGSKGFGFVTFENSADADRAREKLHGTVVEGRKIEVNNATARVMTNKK
Strand,RBNS enrichment (R)
UCACUGUUAACCCUGAGAGCACAUAAUCUGAUGCAUGUGUGACUAAGAAUAAGCCUAUGGUCAUGGGCAAGAAGGGCCAACAUAGACACUUGGGUAGAAAUACAGUCUGA,4.35
UCGGGAUGUUUCAGCUCACACAUCCUUGAGUGACUUCCCAUAUGUGUGUGGGGCUGAAGCGGCUUCUUUCCGCUGAACUUUUAUUUCCAUUUCAGCCUCGUGGCUUCUCU,0.253
ACCUAAGCACUAAACUCUCUUGAGAGACUUCUGUUGCUAAGAAGACCGCAGCUUCUGGAGCCAGGGGUGCAGACCCUUCCAGAGUUCCCAGACCGUGUGACACAGCACAG,0.22
GCUCAGGAAGUCUUUGGGGAAACUAAUGACCUGCAAAUUUGAAGUGGGUGACUGGCUUGGUGGCUUCUGCUAGCCAUCUAAGGCUGGAUAAGGAACUUCCCAGAUGAUUA,0.395
CAAGGCAAACUUUAUGUCCUCCUGGCAUGUUAUUGAUAACAGAGCCAGGAAGUCCAGUGUACAUUACAGAUUUUCUGGGAGAAAUAGUCCUUCCAGAGAAAGGAUUCCUU,0.294
AUCGAGUAUUCUUUAUAUUCAGUUCCUAUUUAAGUCAUUUUUGUCAUGUCCGCCUAAUUGAUGUAGUAUGAAACCCUGCAUCUUUAAGGAAAAGAUUAAAAUAGUAAAAU,1.27
AAAAACUCUUAAGAGUUCCUUUAUAUCAUAUUCUUCAGAGCCAACAUUUGUCCUCAAAGCAACGUUUCCCACCUCCUUUUACUGAGUACUGAAAAAGUUUUAGCAAAGUC,0.443
CCUCCAUCCCUUGACGGUUCUGGCCUUCCCAAACUGCUUUUGAUCUUUUGAUUCCUCUUGGGCUGAAGCAGACCAAGUUCCCCCCAGGCACCCCAGUUGUGGGGGAGCCU,0.523
AUAAAAAAAUAAUGCUGUUAAACAGGAGUUGACCUUCAUUUAGUUGAUGUAAUACAUAGCUGUAUGGGGUUUUUUUUAGUAAGUUCUUUGAGCAUAAUUCACUUUAAAGU,0.957
CGCUUUGCCAGCCUGGGAGCCGCGCGCAUGCGCGCUCUCUCUGCCCUUCUCACCUCUGCUUCACUCGCCUUCUGUGCUUGUUCCGGAGACUUUCCAGGCCAGGGAGAACU,0.556
GUGUCUGCCUCCACUGCACCCCCAGUCCCUAAAGCAGGGAUCGUGUGUGGUGAGGAACGCUCUCUUCUGGCCUCAAGCUCUUUGCCUCUUUGCCUUCAGCACCCUUGAUG,0.356
CUAUGGGUCAUAGUGACUCUGGAGAGGUCCUGGCAGCCCUGAGGAUGUGGAAACCACUAGGGGGCUCCAGAUUGGGUCUUCCUCCGCAGAACUUUAGGACUGGGGAGUGG,0.192

# Block 3 — method: DHFR PCA, deep sequencing; matrix: yeast; together with: (+)-ABA 0.0091 µM; relative to: wild-type fitted maximum; direction: higher = stronger binding
# Target: ABI1, truncated, D143A, DHFR fusion (Arabidopsis thaliana)
# Notes: methotrexate growth selection, single substitutions
# Starting sequence: PYL1, truncated, DHFR fusion (Arabidopsis thaliana); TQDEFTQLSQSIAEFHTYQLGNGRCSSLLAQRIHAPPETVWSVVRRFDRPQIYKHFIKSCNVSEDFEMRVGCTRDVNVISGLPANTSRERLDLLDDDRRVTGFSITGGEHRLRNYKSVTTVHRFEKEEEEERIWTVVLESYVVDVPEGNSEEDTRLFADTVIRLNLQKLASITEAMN
Substitution,relative binding score
E127Y,19.6%
V143Y,-2.93%
T17L,-1.77%
G148A,2.76%
E125F,15.5%
T160K,3.18%
V70G,0.729%
I33E,-2.33%
R69L,2.51%
N177T,34.6%
V136L,16.3%
A170C,17.1%
G23I,-2.25%
I12W,-1.24%
L28N,-2.48%
N22T,34.5%
E129A,43.1%
Q31R,15.1%
S150W,0.178%
Y18V,1.38%
T101P,-4.09%
E128P,17.2%
L138N,-0.894%
V40Q,-0.51%

# Block 4 — target: CEBPD, bZIP domain (human); method: DHFR protein complementation; matrix: yeast; relative to: wild-type JUN-FOS pair; direction: higher = stronger binding
# Notes: single substitutions, most at no-binding floor
# Starting sequence: JUN, bZIP domain (human); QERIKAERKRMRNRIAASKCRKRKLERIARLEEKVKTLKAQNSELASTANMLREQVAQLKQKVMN; partner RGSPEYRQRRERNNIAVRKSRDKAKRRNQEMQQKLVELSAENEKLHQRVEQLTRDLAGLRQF
Substitution,binding fitness [natural log]
A46G,-1.47
Q58R,-1.42
A49N,-1.54
L52Y,-1.47
E33W,-1.41
A29P,-1.34
E54A,-1.32
A29K,-1.35
A49E,-1.21
T37A,-1.34
Q41D,-1.44
A49M,-1.39
E32Q,-1.34
N42E,-1.49
A49D,-1.47
K39Y,-1.42
T48F,-1.43
S47E,-1.33
R30I,-1.31
A40R,-1.38
E44I,-1.35
K34T,-1.41
L31W,-1.41
Q41N,-1.38

# Block 5 — method: protein binding microarray; molecule type: double-stranded DNA, one strand shown; matrix: in vitro; concentration: not given; relative to: not given; direction: higher = stronger binding
# Target: Histone acetyltransferase KAT6A, both winged helices, GST fusion (KAT6A, Homo sapiens, UniProt Q92794, residues 1-181)
# Notes: 8-mer, flanks averaged, mean of 2 arrays, mostly near background
# Construct (chain): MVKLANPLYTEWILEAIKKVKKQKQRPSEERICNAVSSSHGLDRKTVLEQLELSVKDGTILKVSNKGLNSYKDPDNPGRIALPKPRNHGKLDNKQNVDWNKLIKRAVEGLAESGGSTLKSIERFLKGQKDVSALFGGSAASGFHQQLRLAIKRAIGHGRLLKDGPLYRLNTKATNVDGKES
Strand,E-score
AAGCTCCC,-0.0631
AAATCGAA,-0.0919
GGAATAAA,-0.105
GAATGTGA,-0.0789
AGAAGCTA,-0.081
CCAAAACG,-0.0535
CGCGTATC,0.276
ATATATTA,0.0416
ATGGCGCA,0.209
CCTGTAAG,-0.203
GAGTGCGA,-0.0147
CCAGCAGG,-0.223
ACGGACTG,0.127
ACAGACAC,-0.03
GCTTGAAC,0.145
AAAGCTAA,-0.0983
ACTATGCC,0.0424
CGATAATC,0.075
CTGGCCTA,-0.141
GTGTTATA,-0.0657
TTGACCAA,-0.26
GAAACTTA,-0.0164

# Block 6 — method: universal PBM; molecule type: double-stranded DNA, one strand shown; matrix: in vitro; concentration: 600 nM; direction: higher = stronger binding
# Target: Sal-like protein 4, full length isoform A (SALL4, Homo sapiens, UniProt Q9UJQ4, residues 1-1053)
# UniProt Q9UJQ4, sequence (whole entry, looked up): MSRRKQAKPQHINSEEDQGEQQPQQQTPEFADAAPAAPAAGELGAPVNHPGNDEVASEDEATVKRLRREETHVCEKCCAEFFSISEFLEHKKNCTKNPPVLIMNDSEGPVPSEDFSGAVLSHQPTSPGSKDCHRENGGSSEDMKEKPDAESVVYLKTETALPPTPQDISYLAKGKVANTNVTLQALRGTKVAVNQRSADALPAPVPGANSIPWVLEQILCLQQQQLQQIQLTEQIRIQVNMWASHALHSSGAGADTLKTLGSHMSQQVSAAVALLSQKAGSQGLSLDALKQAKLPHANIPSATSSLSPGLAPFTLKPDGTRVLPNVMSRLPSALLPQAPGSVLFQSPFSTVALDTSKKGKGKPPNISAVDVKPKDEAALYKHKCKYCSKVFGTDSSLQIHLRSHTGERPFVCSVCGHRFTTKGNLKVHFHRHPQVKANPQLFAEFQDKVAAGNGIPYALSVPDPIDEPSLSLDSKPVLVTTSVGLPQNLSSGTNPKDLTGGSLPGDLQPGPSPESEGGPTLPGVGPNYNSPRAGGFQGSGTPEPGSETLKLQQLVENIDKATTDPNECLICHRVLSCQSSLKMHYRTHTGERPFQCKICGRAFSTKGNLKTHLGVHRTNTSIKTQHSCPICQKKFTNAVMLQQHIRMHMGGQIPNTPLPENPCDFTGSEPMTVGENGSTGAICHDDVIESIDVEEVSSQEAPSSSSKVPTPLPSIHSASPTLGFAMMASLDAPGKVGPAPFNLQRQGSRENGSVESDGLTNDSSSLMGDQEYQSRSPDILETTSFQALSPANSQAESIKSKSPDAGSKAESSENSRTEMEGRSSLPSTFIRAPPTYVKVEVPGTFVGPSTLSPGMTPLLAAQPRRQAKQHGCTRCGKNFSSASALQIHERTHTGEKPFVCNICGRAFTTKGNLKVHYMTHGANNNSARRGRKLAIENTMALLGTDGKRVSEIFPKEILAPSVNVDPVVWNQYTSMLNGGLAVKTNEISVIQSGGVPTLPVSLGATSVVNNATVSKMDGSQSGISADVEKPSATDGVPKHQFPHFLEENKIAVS
# Notes: 8-mer, flanks averaged, mean of replicates
Strand,E-score
TCGTAGAA,0.0576
CCTAGTAA,-0.0781
ACAGTGAG,-0.0237
AAACAAAG,0.117
ACGACCTG,-0.186
AAATCACC,0.169
ATCTAATG,0.128
CAGTCGGA,-0.128
GAATCGAC,-0.0522
CACGGCAA,-0.072
ATAAGTTG,0.174
TCTTGAAA,0.305
TGTAATAA,0.413
CTTTCAGA,0.115
CCTCGTAA,0.0356
AGATTGAT,0.0607
ATCGGCTC,-0.248
CCATGGCA,-0.125
GCTAAGAA,-0.0717
ATTATTGA,0.421
TACGGCAA,0.0237
CAGGGGGC,-0.339
GTATCCAA,-0.0465

# A few entries again (block 3):
Substitution,relative binding score
T17L,-1.77%
G148A,2.76%
E125F,15.5%
T160K,3.18%
V70G,0.729%
I33E,-2.33%
R69L,2.51%
N177T,34.6%
V136L,16.3%
A170C,17.1%
G23I,-2.25%
I12W,-1.24%
L28N,-2.48%
N22T,34.5%
E129A,43.1%
Q31R,15.1%
S150W,0.178%
